Results pooled from the literature.
A part holds a random share of what one study measured.
Chain of UniProt Q8IWQ3 (whole entry, looked up): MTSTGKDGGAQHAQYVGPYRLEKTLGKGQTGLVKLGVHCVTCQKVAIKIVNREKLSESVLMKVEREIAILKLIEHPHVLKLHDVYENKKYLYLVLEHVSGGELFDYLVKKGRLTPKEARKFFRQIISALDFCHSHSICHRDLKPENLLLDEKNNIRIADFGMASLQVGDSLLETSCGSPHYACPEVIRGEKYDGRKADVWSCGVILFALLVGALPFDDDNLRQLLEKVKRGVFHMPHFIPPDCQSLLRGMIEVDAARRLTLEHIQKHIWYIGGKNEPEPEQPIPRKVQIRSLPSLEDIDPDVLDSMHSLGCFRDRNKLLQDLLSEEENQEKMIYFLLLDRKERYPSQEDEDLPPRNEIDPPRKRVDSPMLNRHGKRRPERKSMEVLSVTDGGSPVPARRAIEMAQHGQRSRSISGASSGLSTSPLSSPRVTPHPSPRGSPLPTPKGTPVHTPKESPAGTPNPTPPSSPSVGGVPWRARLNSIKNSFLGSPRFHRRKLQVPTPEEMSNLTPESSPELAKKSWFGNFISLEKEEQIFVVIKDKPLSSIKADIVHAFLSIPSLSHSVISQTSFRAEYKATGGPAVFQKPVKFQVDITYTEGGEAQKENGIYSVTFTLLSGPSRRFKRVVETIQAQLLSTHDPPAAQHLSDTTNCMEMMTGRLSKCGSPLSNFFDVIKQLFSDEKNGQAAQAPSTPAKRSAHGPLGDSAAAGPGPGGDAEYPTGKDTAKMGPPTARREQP
Chain of UniProt P23458 (whole entry, looked up): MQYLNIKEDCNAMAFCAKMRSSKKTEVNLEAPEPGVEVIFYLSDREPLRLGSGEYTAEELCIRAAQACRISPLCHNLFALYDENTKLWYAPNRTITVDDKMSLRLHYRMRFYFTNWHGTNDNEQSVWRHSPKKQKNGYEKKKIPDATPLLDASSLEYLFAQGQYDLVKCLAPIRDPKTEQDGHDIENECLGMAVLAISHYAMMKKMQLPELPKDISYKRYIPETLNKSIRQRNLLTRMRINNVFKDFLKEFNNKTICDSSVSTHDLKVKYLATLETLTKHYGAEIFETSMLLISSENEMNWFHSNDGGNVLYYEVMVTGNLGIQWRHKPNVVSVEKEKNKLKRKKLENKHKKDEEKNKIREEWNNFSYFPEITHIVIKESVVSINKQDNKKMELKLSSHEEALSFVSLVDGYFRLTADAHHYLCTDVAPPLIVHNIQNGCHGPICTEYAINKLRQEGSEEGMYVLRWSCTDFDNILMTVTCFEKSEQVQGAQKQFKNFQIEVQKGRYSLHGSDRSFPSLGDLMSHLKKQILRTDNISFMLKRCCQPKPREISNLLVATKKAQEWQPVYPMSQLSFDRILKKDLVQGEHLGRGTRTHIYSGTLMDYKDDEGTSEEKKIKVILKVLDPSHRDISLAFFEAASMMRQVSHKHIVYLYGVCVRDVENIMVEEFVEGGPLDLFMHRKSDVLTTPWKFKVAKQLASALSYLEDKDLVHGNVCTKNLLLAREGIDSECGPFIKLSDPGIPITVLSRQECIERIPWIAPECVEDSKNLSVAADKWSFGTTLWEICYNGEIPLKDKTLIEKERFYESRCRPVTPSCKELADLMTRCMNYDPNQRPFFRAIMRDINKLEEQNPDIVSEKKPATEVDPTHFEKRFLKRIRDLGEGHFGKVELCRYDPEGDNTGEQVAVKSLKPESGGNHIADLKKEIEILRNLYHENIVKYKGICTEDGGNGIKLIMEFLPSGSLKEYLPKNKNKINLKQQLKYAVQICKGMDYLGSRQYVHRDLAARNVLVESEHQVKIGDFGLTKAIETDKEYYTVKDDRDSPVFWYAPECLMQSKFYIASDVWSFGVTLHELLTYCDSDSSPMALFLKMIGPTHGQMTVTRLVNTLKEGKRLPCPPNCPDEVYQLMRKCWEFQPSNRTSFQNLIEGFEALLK
Chain of UniProt O60674 (whole entry, looked up): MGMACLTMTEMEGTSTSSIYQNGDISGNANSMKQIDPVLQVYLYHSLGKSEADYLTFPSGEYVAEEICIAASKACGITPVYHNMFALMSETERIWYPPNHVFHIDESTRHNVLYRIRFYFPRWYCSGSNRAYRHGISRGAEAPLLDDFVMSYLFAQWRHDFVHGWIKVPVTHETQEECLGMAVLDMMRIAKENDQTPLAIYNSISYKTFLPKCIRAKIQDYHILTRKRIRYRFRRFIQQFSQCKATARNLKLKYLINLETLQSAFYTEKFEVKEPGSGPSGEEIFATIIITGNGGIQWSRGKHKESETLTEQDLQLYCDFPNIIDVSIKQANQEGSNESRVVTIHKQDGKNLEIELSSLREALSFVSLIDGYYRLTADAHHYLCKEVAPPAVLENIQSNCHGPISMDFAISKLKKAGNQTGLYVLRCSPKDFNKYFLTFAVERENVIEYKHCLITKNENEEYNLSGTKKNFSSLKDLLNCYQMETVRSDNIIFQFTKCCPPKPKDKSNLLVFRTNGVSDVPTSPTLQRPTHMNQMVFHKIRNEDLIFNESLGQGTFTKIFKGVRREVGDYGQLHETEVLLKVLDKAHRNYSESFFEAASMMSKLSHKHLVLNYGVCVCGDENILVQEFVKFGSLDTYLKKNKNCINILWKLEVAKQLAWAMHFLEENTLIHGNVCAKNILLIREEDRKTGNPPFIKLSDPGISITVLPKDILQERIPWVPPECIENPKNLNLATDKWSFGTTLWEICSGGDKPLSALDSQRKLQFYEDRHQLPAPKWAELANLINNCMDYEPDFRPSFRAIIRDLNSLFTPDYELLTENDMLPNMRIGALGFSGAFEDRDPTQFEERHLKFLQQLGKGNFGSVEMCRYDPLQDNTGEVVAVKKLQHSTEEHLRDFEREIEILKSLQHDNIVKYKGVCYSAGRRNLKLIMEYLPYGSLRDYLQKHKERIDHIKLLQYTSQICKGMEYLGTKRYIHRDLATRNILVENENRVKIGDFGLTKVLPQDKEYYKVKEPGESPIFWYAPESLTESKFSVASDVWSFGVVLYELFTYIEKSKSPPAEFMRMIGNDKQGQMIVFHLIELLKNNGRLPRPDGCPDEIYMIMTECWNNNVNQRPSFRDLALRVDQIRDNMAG
Chain of UniProt Q9Y5N1 (whole entry, looked up): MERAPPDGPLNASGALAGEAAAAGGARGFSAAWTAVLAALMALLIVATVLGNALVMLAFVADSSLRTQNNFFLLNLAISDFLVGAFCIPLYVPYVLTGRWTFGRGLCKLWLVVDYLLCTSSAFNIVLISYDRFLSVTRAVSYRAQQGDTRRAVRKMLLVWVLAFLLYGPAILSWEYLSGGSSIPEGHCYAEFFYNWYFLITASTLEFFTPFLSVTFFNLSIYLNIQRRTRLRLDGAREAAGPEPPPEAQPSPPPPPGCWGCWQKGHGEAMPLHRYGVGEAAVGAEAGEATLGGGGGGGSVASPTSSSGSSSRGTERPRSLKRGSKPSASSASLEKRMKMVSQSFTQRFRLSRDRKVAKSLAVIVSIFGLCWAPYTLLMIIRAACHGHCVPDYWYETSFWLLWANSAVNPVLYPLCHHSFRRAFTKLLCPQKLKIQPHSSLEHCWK
Chain of UniProt Q00535 (whole entry, looked up): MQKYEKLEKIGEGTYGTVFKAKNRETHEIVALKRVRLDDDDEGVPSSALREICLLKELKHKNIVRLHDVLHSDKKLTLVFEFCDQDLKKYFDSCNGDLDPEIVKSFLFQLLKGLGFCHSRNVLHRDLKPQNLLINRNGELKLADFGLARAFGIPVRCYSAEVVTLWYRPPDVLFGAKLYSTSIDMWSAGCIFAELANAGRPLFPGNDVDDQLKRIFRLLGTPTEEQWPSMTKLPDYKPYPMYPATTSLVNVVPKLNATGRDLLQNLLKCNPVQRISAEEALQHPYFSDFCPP
Chain of UniProt Q9GZN0 (whole entry, looked up): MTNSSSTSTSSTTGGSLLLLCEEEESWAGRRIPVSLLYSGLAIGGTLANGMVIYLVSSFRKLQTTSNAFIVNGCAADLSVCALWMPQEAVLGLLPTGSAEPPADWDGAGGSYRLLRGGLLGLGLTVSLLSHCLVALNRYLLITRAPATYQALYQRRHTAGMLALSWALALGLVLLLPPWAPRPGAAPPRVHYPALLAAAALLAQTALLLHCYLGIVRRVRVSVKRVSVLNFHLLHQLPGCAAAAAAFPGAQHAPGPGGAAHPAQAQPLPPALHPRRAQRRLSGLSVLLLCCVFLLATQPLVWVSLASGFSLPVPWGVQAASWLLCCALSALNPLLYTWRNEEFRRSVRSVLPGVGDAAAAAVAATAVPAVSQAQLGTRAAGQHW
Chain of UniProt P21462 (whole entry, looked up): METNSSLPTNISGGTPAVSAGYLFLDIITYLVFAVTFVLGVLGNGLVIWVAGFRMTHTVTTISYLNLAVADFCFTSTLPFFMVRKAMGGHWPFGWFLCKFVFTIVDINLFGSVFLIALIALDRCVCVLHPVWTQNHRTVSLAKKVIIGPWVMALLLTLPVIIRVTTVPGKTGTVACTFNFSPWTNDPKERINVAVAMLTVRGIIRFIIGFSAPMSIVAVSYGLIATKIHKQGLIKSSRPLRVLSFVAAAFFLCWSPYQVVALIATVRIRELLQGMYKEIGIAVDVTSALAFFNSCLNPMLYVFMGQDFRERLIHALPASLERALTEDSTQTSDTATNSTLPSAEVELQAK
Chain of UniProt Q8N5S9 (whole entry, looked up): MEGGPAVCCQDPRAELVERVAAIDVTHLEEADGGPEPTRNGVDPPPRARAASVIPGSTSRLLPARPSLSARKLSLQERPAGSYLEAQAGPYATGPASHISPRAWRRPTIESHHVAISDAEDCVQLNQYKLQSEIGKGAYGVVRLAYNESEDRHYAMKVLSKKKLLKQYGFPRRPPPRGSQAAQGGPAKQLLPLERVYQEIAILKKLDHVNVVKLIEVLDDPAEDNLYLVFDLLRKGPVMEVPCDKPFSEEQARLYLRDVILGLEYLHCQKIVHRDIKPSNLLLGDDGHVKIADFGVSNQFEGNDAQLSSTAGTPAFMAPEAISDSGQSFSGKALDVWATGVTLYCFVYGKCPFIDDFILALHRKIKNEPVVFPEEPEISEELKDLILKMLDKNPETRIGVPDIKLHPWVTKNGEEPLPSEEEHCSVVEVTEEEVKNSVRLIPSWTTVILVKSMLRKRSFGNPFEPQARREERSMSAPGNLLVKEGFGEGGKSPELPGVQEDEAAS

Study 1 — species: human; matrix: microsomes or S9; concentration: 2 µM; time: 0.5 h; quantity: remaining compound
CN(CCN1CCCCC1)C(=O)c1c2c(nn1C)CCCC2: 80.7%
Cc1n[nH]c(C)c1CNC(=O)C1CCN(C(=O)c2ncn3c2COC(c2ccc(F)cc2)C3)CC1 (stereo not shown): 68.9%
N=C(N)NC(=O)c1cc2c(-c3cccc(Cl)c3)cccc2s1: > 100%
Cc1ccc(CSC2=NS(=O)(=O)c3ccccc32)cc1: 0%
CC(C)COc1cc(=O)n2c(c1C(=O)NCc1ccccc1F)CCCCC2: 72.7%
Cc1ccc(C(=O)COC(=O)c2ccc(Cn3ccccc3=O)o2)s1: 37.8%
Cn1nccc1NC(=O)c1cnc2c(F)cc(F)cc2c1O: 76.2%

Study 2 — observed: ligand displacement; technique: radioligand; concentration: 10 µM; quantity: inhibition
SMILES: Cc1cc(NC(=O)c2cccc(S(F)(F)(F)(F)F)c2)cc(-n2ccn3nc(-c4cccnc4)cc23)c1
HTR3A (Homo sapiens, UniProt P46098): -1.37%
ADRA2B (Homo sapiens, UniProt P18089): 34.4%
HRH3 (Homo sapiens, UniProt Q9Y5N1): 40.5%
CHRM4 (Homo sapiens, UniProt P08173): -13.8%
HTR7 (Homo sapiens, UniProt P34969): -4.45%
ADRA1D (Homo sapiens, UniProt P25100): 8.58%
HTR6 (Homo sapiens, UniProt P50406): -8.52%

Study 3 — Structure (SMILES): CCN(c1nc(N)c(C(=O)N=C(N)N)nc1Cl)C(C)C; observed: β-arrestin recruitment; mode: agonist; technique: PRESTO-Tango; concentration: 10 µM; baseline: untreated; quantity: fold over basal
GPR35 (Homo sapiens, UniProt Q9HC97): 1.1
PTH1R (Homo sapiens, UniProt Q03431): 0.68
CCR6 (Homo sapiens, UniProt P51684): 1.02
ADGRG3 (Homo sapiens, UniProt Q86Y34): 1.1
FPR1 (Homo sapiens, UniProt P21462): 1.33 fold
G protein-coupled receptor 88 (Homo sapiens, UniProt Q9GZN0): 1.07

Study 4 — observed: enzyme activity; mode: inhibitor; concentration: 0.5 µM; baseline: control; quantity: remaining activity
SMILES: C[S+]([O-])c1ccc(-c2nc(-c3ccncc3)c(-c3ccc(F)cc3)[nH]2)cc1 (stereo not shown)
JAK1 (Homo sapiens, UniProt P23458): 105%
Cyclin-dependent kinase 5, with p35 (CDK5, Homo sapiens, UniProt Q00535): 97.3%
MUSK (Homo sapiens, UniProt O15146): 90.3%
PRKCQ (Homo sapiens, UniProt Q04759): 111%
ERBB2 (Homo sapiens, UniProt P04626): 94.6%
CAMKK1 (Homo sapiens, UniProt Q8N5S9): 125%
Cyclin-dependent kinase 2, with cyclin E (CDK2, Homo sapiens, UniProt P24941): 93.1%
CAMK1 (Homo sapiens, UniProt Q14012): 106%
IGF1R (Homo sapiens, UniProt P08069): 94.3%
BRSK2 (Homo sapiens, UniProt Q8IWQ3): 101%
DYRK1A (Homo sapiens, UniProt Q13627): 95.6%
CSNK1D (Homo sapiens, UniProt P48730): 13.9%
JAK2 (Homo sapiens, UniProt O60674): 99.5%
MAP3K20 (Homo sapiens, UniProt Q9NYL2): 100%
EPHA6 (Homo sapiens, UniProt Q9UF33): 57.2%
PIM1 (Homo sapiens, UniProt P11309): 103%
PAK1 (Homo sapiens, UniProt Q13153): 99.2%

Excerpt of the above (study 1):
Cc1ccc(C(=O)COC(=O)c2ccc(Cn3ccccc3=O)o2)s1: 37.8%
Cn1nccc1NC(=O)c1cnc2c(F)cc(F)cc2c1O: 76.2%
